Results gathered from unrelated publications.
Compare with care: the assays were run in different laboratories. Values joined by “and” are separate records of one study, mostly repeats; a detail may differ. ± marks the error that the study gave.
Chain of UniProt Q9ULW8 (whole entry, looked up): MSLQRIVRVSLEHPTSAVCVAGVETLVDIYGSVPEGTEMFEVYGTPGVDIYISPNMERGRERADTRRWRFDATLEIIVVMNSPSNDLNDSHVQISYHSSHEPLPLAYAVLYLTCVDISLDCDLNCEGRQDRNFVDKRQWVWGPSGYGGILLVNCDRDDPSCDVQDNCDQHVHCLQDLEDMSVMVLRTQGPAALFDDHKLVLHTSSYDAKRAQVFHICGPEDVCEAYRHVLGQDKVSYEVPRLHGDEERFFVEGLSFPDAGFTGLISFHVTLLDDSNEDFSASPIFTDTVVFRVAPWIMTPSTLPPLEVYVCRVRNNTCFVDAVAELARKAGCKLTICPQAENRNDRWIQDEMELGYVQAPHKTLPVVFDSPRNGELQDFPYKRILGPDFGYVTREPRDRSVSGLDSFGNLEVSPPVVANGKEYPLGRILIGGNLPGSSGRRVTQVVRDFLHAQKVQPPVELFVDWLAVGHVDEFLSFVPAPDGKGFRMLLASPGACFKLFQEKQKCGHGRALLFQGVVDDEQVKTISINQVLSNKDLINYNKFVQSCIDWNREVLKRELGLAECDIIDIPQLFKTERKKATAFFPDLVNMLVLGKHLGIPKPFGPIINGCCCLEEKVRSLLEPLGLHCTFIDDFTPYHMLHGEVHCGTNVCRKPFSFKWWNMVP
Chain of UniProt Q9Y237 (whole entry, looked up): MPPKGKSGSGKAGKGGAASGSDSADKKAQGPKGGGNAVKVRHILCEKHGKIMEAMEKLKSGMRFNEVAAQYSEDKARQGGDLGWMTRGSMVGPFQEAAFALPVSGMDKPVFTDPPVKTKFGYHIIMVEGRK
Chain of UniProt Q16832 (whole entry, looked up): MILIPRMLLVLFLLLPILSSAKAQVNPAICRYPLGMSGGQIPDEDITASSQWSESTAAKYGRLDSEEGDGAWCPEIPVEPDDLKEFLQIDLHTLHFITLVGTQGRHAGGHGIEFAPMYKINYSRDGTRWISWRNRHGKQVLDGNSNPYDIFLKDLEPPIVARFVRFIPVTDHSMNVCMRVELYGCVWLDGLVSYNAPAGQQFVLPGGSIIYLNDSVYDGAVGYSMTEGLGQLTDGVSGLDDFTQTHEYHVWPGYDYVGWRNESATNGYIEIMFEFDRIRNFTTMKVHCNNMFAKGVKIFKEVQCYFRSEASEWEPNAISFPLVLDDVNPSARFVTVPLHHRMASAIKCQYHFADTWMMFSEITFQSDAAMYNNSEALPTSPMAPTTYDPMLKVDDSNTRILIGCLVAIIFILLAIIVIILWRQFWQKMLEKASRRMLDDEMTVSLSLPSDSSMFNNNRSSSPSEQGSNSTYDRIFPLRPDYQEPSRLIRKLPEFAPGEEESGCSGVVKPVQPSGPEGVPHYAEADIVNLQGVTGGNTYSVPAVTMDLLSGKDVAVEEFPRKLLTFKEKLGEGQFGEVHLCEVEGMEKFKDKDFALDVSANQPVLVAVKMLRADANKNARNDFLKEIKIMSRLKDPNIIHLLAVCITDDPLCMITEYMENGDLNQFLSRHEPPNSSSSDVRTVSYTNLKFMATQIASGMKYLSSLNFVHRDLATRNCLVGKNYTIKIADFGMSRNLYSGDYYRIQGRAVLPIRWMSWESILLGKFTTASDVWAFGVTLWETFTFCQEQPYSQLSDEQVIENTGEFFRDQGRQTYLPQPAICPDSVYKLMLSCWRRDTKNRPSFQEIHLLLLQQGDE
Chain of UniProt Q32ZE1 (whole entry, looked up): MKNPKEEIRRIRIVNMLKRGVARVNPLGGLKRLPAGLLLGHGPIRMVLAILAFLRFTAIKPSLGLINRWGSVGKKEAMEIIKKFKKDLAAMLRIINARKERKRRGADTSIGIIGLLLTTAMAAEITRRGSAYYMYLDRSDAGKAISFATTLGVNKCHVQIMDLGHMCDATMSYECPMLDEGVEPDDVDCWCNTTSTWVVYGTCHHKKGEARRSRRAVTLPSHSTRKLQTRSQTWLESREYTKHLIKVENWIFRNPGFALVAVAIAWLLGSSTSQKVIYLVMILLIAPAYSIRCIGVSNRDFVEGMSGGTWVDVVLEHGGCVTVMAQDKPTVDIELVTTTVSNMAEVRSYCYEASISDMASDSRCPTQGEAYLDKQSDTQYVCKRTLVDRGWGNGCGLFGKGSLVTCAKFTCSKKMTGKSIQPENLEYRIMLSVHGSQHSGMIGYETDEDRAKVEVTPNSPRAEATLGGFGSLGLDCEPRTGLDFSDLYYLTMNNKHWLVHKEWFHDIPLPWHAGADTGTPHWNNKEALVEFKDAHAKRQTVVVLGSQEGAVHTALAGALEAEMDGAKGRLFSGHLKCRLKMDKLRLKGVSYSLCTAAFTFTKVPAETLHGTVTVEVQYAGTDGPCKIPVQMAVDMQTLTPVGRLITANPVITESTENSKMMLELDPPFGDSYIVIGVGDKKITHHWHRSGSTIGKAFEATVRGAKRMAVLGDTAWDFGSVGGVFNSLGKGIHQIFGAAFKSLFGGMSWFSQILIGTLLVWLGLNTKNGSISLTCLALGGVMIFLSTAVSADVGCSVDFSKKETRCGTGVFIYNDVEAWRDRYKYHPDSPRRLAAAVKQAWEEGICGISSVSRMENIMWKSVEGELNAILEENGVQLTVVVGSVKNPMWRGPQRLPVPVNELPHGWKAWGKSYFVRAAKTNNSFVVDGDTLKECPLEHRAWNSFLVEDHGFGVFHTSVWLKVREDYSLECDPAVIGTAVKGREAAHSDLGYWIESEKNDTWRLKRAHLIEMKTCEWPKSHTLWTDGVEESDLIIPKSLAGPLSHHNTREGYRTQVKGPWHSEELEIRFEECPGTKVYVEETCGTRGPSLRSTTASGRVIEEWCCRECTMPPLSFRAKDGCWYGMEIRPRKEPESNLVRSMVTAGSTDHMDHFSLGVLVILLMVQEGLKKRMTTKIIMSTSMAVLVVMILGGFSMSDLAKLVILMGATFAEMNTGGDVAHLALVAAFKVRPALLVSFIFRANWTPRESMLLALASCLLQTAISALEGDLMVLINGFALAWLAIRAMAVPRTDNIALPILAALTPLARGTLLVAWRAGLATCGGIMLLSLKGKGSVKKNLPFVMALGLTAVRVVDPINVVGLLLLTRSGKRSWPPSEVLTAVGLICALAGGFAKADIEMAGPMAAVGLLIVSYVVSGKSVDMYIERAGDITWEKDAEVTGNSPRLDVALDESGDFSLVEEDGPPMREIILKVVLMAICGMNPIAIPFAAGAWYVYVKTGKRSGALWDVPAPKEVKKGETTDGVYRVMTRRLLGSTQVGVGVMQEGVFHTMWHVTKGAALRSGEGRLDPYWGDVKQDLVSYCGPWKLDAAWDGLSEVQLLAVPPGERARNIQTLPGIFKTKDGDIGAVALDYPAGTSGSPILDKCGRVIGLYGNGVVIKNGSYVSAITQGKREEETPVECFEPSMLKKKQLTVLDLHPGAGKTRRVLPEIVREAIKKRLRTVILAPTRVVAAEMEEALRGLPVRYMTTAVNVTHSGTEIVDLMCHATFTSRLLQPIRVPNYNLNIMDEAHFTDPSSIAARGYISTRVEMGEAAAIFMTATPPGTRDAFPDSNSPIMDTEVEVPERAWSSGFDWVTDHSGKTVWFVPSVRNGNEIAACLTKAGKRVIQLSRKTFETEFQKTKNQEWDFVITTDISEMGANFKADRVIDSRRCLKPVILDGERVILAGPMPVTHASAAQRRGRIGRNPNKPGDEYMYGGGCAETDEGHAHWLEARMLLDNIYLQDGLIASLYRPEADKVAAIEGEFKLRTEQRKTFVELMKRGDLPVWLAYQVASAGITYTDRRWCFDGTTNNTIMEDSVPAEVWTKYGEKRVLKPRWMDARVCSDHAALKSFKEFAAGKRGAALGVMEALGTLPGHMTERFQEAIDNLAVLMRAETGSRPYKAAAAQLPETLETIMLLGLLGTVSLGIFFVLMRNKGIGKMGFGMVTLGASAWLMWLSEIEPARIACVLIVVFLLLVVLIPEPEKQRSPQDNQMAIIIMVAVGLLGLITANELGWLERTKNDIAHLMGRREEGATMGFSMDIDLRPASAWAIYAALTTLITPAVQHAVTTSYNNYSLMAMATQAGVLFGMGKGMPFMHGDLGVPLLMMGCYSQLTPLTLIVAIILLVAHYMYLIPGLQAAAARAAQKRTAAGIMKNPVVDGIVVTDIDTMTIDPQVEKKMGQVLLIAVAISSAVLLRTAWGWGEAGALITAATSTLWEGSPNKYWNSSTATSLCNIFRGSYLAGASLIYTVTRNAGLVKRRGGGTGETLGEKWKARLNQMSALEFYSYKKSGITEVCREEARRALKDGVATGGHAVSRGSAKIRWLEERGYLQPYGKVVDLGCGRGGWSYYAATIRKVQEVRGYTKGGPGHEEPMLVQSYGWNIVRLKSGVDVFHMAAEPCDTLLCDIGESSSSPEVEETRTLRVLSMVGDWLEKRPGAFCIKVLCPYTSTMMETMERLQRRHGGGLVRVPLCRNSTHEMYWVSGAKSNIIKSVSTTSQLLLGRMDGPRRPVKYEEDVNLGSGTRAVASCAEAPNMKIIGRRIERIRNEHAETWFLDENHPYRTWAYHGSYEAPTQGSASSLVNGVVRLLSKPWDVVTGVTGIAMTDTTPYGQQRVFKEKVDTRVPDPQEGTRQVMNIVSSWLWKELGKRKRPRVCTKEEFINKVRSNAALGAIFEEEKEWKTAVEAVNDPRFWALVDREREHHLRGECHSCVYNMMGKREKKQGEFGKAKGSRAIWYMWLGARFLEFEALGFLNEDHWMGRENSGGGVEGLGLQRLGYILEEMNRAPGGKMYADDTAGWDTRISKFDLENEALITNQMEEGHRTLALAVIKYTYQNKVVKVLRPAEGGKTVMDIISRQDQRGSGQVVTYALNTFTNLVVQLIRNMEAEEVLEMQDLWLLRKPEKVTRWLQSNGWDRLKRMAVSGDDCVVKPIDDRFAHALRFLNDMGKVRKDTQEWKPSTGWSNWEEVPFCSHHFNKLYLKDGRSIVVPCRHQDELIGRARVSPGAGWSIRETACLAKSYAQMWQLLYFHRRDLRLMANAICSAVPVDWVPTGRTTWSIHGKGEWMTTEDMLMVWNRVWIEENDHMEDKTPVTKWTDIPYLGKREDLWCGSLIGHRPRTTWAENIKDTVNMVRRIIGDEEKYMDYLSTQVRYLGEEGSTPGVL

`Cc1sc2c(c1C)C(c1ccc(Cl)cc1)=NC(CC(=O)OC(C)(C)C)c1nnc(C)n1-2` (stereo not shown) gave a remaining binding of 70.9% (MTNR1A (Homo sapiens, UniProt P48039); ligand displacement, radioligand; 1 µM).
`CC(C)CC(C(=O)N1CC2(CC1C#N)C(=O)Nc1ccccc12)N(C)C(=O)c1cc2c(F)cc(F)c(F)c2[nH]1` (stereo not shown) has a remaining activity of 10.1% (Replicase polyprotein 1ab, main protease (rep, Porcine epidemic diarrhea virus, UniProt P0C6Y4); protease activity, inhibitor; 3.16 µM).
For `Cc1cccc(OC(C)C(=O)Nc2nc(-c3ccccc3)n[nH]2)c1` (stereo not shown), inhibition read “no inhibition” (Beta-lactamase (ampC, Escherichia coli K-12, UniProt P00811); enzyme activity, inhibitor; up to 10 µM, colloidal aggregation counterscreen, together with: 0.1% DMSO).
With `O=C(CN1CN(c2ccccc2)C2(CCN(C(=O)c3cnc4[nH]ncc4c3)CC2)C1=O)NCC(F)(F)F` the inhibition was under 50% (WNK1 (Homo sapiens, UniProt Q9H4A3); inhibitor; concentration not given).
The inhibition of `CN1CCNCC1` is reported as 35.2% (ache (Electrophorus electricus, UniProt O42275); enzyme activity, inhibitor, Ellman; 20 µM).
For `COc1ccccc1-c1n[nH]c2nc(NC3CCN(C(=O)Cc4ccc(F)cc4F)CC3)ncc12`, the relative abundance was 0.97 (bead binding, competition bead pull-down, refers to: LINJ.24.1910; Leishmania donovani extract; 10 µM; relative to: vehicle).
For `CC(C)[C@H]1NC(=O)C[C@H]2/C=C/CCSSC[C@@H](NC1=O)C(=O)N[C@H](Cc1cccc3ccccc13)C(=O)NCC(=O)O2`, the inhibition was 5.8% (DDR2 (Homo sapiens, UniProt Q16832); enzyme activity, inhibitor; 10 µM).
`COc1ccccc1N1CCN(CCCCN2CCCc3ccccc3C2=O)CC1` gave an inhibition of 42.6% (DRD5 (Homo sapiens, UniProt P21918); radioligand binding; concentration not given, together with: [3H]SCH23390).
The inhibition of `CN[C@@H]1[C@H](O)[C@H](NC)[C@H]2O[C@]3(O)[C@H](O[C@@H]2[C@H]1O)O[C@H](C)C[C@H]3NC(=O)Cc1ccc(Cl)cn1` is reported as 8% (EDNRB (Homo sapiens, UniProt P24530); ligand displacement, radioligand; 10 µM).
With `C[C@@H]1NC(=O)[C@H](CCCNC(=N)N)NC(=O)[C@H](Cc2ccc3ccccc3c2)NC(=O)[C@H]2CCCCN2C(=O)[C@@H]([C@H](C)O)NC(=O)[C@H](Cc2ccc(F)cc2)NC(=O)[C@@H](Cc2ccc(F)cc2)NC(=O)c2cc3cc(c2)C(=O)NC[C@H](NC(=O)[C@@H](Cc2ccccc2)NC1=O)C(=O)N[C@@H](Cc1ccccc1)C(=O)N[C@@H](Cc1ccc2ccccc2c1)C(=O)N[C@@H](CCCNC(=N)N)C(=O)N[C@@H](CCCNC(=N)N)C(=O)N[C@@H](CCCNC(=N)N)C(=O)N[C@@H](CCCNC(=N)N)C(=O)N[C@H](C(=O)N[C@@H](CCCCN)C(N)=O)CNC3=O` the inhibition was about 15% (Peptidyl-prolyl cis-trans isomerase NIMA-interacting 4 (Homo sapiens, UniProt Q9Y237); enzyme activity, inhibitor; 5 µM).
`CN(C)[C@H]1C[C@@]23CC[C@@]4(O2)C(=CC[C@]2(C)[C@@H](c5ccc6ccncc6c5)CC[C@H]24)C=C3[C@@H](O)[C@@H]1O` has an inhibition of -1.9% (ILK (Homo sapiens, UniProt Q13418); ATP probe labelling, inhibitor, KiNativ profiling; 0.1 µM).
For `O=C1NC2(CC2)COc2ncc(F)cc2[C@H]2COCCN2c2ccn3ncc1c3n2`, the serum urea was 6.29 ± 1.84 mmol/L (Sprague-Dawley rat, male, serum; oral, 20 mg/kg/day, end of treatment, 4-week subacute toxicity).
`C[C@H](NCc1ccc(-c2ccc(C(F)(F)F)cc2)cc1)C(N)=O` gave an inhibition of -3% (androgen receptor, human; binding, radioligand binding; biochemical; 1 µM, together with: [3H]methyltrienolone 0.50 nM).
With `CS(C)(=O)=Nc1ccc(-c2ccc(-c3nc4cc(O[C@@H]5CO[C@H]6[C@@H]5OC[C@H]6O)[nH]c4cc3F)cc2)cc1` the inhibition was 8% (FGR (Homo sapiens, UniProt P09769); enzyme activity, inhibitor; 10 µM).
For `CC(=O)NC[C@@H]1[C@@H](O)C[C@H]2[C@H](O)C[C@@H](CO)N12`, the inhibition was 57.9% (human placental β-N-acetylglucosaminidase; 0.0856 µM, run 2, together with: p-nitrophenyl GlcNAc).
With `O=C(NC1CCN(c2ncnc3[nH]cnc23)CC1)c1cccc(NS(=O)(=O)c2ccc(C(F)(F)F)cc2)c1` the inhibition was 3.59% (Genome polyprotein, NS5 methyltransferase domain (Zika virus, UniProt Q32ZE1); NS5 enzyme activity, inhibitor; 3.125 µM).
`O=C1NC(=O)c2c1c1cc(F)c[n+]3c1c1c2c2cc(O)ccc2[n]1[Ru-4]312([N]=C=S)[S+]3CC[S+]1CC[S+]2CC3` (stereo not shown) has a remaining activity of 31% (PAK5 (Homo sapiens, UniProt Q9P286); enzyme activity; 100 nM, human enzyme, together with: 10 µM ATP; relative to: untreated).
For `CC(C)(C)C(=O)OCOP(=O)(OCOC(=O)C(C)(C)C)C1CCCN(O)C1=O` (stereo not shown), the log TGI was -5.26 log M (MDA-MB-468).
For `N[C@H](C(=O)N1CCCC1)C1CCN(c2nccc3c(-c4ncc(Cl)cc4Cl)cccc23)CC1`, the inhibition was 8.3% and 1.92% (PADI3 (Homo sapiens, UniProt Q9ULW8); enzyme activity, inhibitor; 6.291 nM).
